# Experimental data collected from several papers.
# Numbered parts are unrelated; each lists some results of a single study.

# Sample 1
# Target: Prothrombin, mature alpha-thrombin (F2, Homo sapiens, UniProt P00734)
# Method: aptamer microarray, sandwich
# Molecule type: DNA with 2'F-ANA
# Medium: in vitro
# Concentration: 200 nM
# Notes: whole 15-mer aptamer, many near background
# Together with: Cy3 exosite-II aptamer, 400 nM
# Reading: higher = stronger binding
# Oligonucleotide: GGTTGGTGTGGTTGG
Modification,mean fluorescence intensity
2'F-ANA at 1 4 6 9 10 11 14,51.1 a.u.
2'F-ANA at 2 3 4 6 12,825 a.u.
2'F-ANA at 1 3 4 5 8 9 10 12 13 14,65.8 a.u.
2'F-ANA at 1 2 4 5 8 10 11 12 13,48.3 a.u.
2'F-ANA at 4 5 6 7 8 9 11 14 15,64.6 a.u.
2'F-ANA at 2 3 4 5 8 10 11 15,50.9 a.u.
2'F-ANA at 4 6 7 9 14,129 a.u.

# Sample 2
# Target: RNA binding protein fox-1 homolog 2, RRM domain, GST-SBP tag (RBFOX2, Homo sapiens, UniProt O43251-10, residues 100-194)
# Method: RNA Bind-n-Seq
# Molecule type: RNA
# Medium: in vitro
# Concentration: 365 nM
# Notes: natural RNA segment, single round, ends assumed
# Relative to: no-protein control
# Reading: higher = stronger binding
# Construct (chain): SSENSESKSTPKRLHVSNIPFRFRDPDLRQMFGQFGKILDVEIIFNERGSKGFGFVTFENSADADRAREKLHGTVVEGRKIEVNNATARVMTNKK
Oligonucleotide,RBNS enrichment (R)
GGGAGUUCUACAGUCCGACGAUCCGAGGCUGAGUUGCUGUAGCGUCUUGAUUCUCUCCCUGGGUCUGCGUUCCCUCCCCUGGGCCUGACUGAGCCUGCUCAUUGUUUUUCCCUUUAUUACACAGGACAGCCAGUGGAAUUCUCGGGUGCCAA,1.82
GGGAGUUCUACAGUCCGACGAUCAGAAUUCUUGUCUACUUUUUUCUUUCCCAAAAAGUGUUUUUUAAUUUCUCUACCAAAGAAAAAAUGAGCAGGUUUAGGUUUUUACAUGACUUAUAUACAUUAGAUAAAAGUGGAAUUCUCGGGUGCCAA,0.586
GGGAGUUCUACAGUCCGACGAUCGCCUCGUCCCCUCCCCUGGUGCCUGUGUCUGCAGAAAAACAAGACCAGAUGUGAUUUGUUUUUAAAAUAAGAUGAUGACAACGACAACCACACGCAAACCAACAAACAAAUGGAAUUCUCGGGUGCCAA,0.527
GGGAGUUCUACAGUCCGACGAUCACAUAGUGGGCCUUCAUUAAAUGUUUGUUGAAUAAAAGAGGGAAGAAGGCAAGCCAACCUUAGCUACAAUCCUACCUUUUGAUAAAAUGUUCCUUUUGACAAUAUACACGUGGAAUUCUCGGGUGCCAA,0.289
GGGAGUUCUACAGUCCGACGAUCUCUUAUAUUGUAGGCAUUUCUCAAGUGUUUUAGAUAUUAAUAACUAACAUUGGGAUUUUACUUUGCCAGCCCCAGCCUUCAGAACUCCAUUGUCAUAGUACACCUGUAAAUGGAAUUCUCGGGUGCCAA,0.418
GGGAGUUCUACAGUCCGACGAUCCUAUUUAUAGAGCCAAUGUGGGUUAAUAACUACUAUUUAUUGAGUGCCCGUUCCAUGCCAAGCAUUAGGCUGGGUGCUUUACAUAAGUUUAAUCCUCACAAUAGCCCUGUUGGAAUUCUCGGGUGCCAA,0.369
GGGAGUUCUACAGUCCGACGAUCCCCACCUGCUUAUUUAAAAUCAAGUUUAUUGUAGAAAUGGUGUGGUGUUGAUGUGUGUUUUCCCUAAAACUCUAAUUUCAUCUCAUCUGUGGGCAGCCCUGCUCUCUGGAUGGAAUUCUCGGGUGCCAA,0.204

# Sample 3
# Target: Histone acetyltransferase KAT6A, both winged helices, GST fusion (KAT6A, Homo sapiens, UniProt Q92794, residues 1-181)
# Method: protein binding microarray
# Molecule type: double-stranded DNA, one strand shown
# Medium: in vitro
# Concentration: not given
# Notes: 8-mer, flanks averaged, mean of 2 arrays, mostly near background
# Relative to: not given
# Reading: higher = stronger binding
# Target sequence (chain): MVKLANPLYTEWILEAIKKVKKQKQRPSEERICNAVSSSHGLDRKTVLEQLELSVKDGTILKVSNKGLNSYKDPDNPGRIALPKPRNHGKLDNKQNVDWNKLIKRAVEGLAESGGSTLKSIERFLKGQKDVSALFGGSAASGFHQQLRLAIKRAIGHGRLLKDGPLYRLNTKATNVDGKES
Oligonucleotide,E-score
ATACGCGA,0.2
GCGTCCTA,0.0717
CCCGTTGC,0.23
CGGGTAGC,0.233
ACTTGTTC,-0.0391
GGCAATCA,-0.0291
CGGGTCGC,0.312

# Other studies, line by line
Molecule,target,assay,system,conditions,how to read,endpoint,value
"PhoQ, residues 284 288 289 292 302 303 TNASYF","PhoP, residues 12 14 15 18 19 QWHVF (Escherichia coli, UniProt P23836)","Sort-seq, refers to: YFP reporter",E. coli,"PhoQ-PhoP variant library, together with: 10 µM Mg2+","relative to: high Mg2+ state, higher = stronger signaling",fold induction,9.53

# A few entries again (sample 3):
Oligonucleotide,E-score
ACTTGTTC,-0.0391
GGCAATCA,-0.0291
